Measured values pooled from the literature.
Values joined by “and” are separate records of one study, mostly repeats; a detail may differ. ± marks the error that the study gave.
IDE: Insulin-degrading enzyme (IDE, Homo sapiens, UniProt P14735)

The viability of `Nc1nc(OCc2cc(Br)cs2)c2[nH]cnc2n1` is reported as 98.7% (HBL-1; 1 µM, 120 h).
`Oc1ccccc1-c1n[nH]cc1-c1ccnc2ccccc12` — result for “log2 fold change”: -0.05 (GCN2 (Candida albicans); kinase binding, MIB/MS competition; Candida albicans lysate; 1 µM; reference: DMSO).
The IC50 of `Cc1[nH]c(C)c(-c2ccc(OCc3ccccc3C(F)(F)F)nc2)c(=O)c1Br` is reported as 46 ± 28 nM (Plasmodium yoelii; 17XL; 384-well).
`OC(CCN1CCCCC1)(c1ccccc1)C1CC2C=CC1C2` (centres unmarked): “change, theta power, EEG O1-Pz” -15.2% (resting-state EEG; healthy elderly humans; oral, 2 mg, eyes closed, LS mean; reference: baseline).
The inhibition of `O=C(Nc1cccc(C2=NCCN2)c1)Nc1cccc(C2=NCCN2)c1` is reported as 10.1% (Theileria equi; parasite growth, flow cytometry; horse erythrocytes, USDA Florida strain; 0.172 µM, 72 h).
The IC50 of `Cc1[nH]c(C)c(-c2ccc(-c3cc(C(F)(F)F)cc(C(F)(F)F)c3)nc2)c(=O)c1Br` is reported as 92 ± 65 nM (Plasmodium yoelii; 17XL; 384-well).
For `CC(=O)ON=C1C=CC(=C(C#N)c2ccccc2)C=C1`, the remaining activity was 78% (pig CK1 delta/epsilon; enzyme activity, inhibitor, ADP-Glo; 2 µM, about MIC/10, together with: ATP 10 µM).
For `O=C(O)CCNc1cc(N2CCc3ccccc3CC2)nc(-c2cccnc2)n1`, the viability was 98.6% (HBL-1; 1 µM, 120 h).
With `COc1ccc(C=CC(=O)NC(=O)c2ccccc2OC(=O)c2ccccc2)cc1OC` the IC50 was 585 ± 147 nM (Plasmodium yoelii; 17XL; 384-well).
`COc1ccc(F)cc1C(=O)NCc1ccc(-c2nn([C@@H](C)C(F)(F)F)c(N)c2C(N)=O)cc1` gave an inhibition of 60.2% (MEK1/MEK2 human; probe binding, competitive chemoproteomics; human PBMCs; 10 µM).
`COc1cc(OC)c2c(=O)[nH]c(-c3cc(C)c(OCCO)c(C)c3)nc2c1` gave a viability of 120% (HBL-1; 0.1 µM, 120 h).
The IC50 of `CCCCCCCc1c(C)[nH]c2ccccc2c1=O` is reported as 195 ± 89 nM (Plasmodium yoelii; 17XL; 384-well).
The viability of `CC(=O)Nc1ccc(C(=O)Nc2ccccc2N)cc1` is reported as 60.3% (HBL-1; 1 µM, 120 h).
For `Cc1[nH]c(C)c(-c2ccc(OCc3ccccc3)cc2)c(=O)c1Br`, the IC50 was 180 ± 70 nM (Plasmodium yoelii; 17XL; 384-well).
The EC50 of `O=S(=O)(c1ccccc1C(F)(F)F)N1C/C=C\CN2[C@H](CO)[C@@H](c3ccc(-c4cccc(Cl)c4Cl)cc3)[C@@H]2C1` is reported as 9 nM (IDE; enzyme activity, inhibitor, fluorescence kinetic; together with: Mca-RPPGFSAFK(Dnp)-OH substrate).
For `CN(C)c1ccc(C(=O)NCCCCCC(=O)NO)cc1`, the viability was 80.1% (HBL-1; 1 µM, 120 h).
For `Cc1[nH]c(C)c(-c2ccc(-c3ccccc3C(F)(F)F)nc2)c(=O)c1Br`, the IC50 was 984 ± 576 nM (Plasmodium yoelii; 17XL; 384-well).
For `CCOC(=O)Nc1cc(-c2ccc(C)c(NS(C)(=O)=O)c2)nn2c(C)nnc12`, the viability was 16.8% (HBL-1; 1 µM, 120 h).
With `Cc1cc(C)c2cc(CNCCCNc3nc4ccccc4[nH]3)[nH]c2c1` the IC50 was greater than 20000 nM (Plasmodium yoelii; 17XL; 384-well).
The sarcomere length of `CC(C)NCC(O)c1ccc(O)c(O)c1` (centres unmarked) is reported as 1.69 µm (ventricular cardiomyocytes, C57BL/6 mouse; dose not given, 0.12 s).
Under “log2 fold change”, `Cn1cc(-c2ccc(-c3cncc(Cl)c3N3CCC4(CCNC4=O)CC3)cc2)cn1` is recorded as 3.47 (COLO 205; gene expression, microarray, refers to: SLC2A1 mRNA; concentration not given, 2 h; reference: untreated cells).
With `O=C(/C=C/C=C/C=C/C1CCCCC1)NC1=C[C@@](O)(/C=C/C=C/C=C/C(=O)NC2=C(O)CCC2=O)[C@@H]2O[C@@H]2C1=O` the GI50 was 16500 nM (LK-2; cell growth, CellTiter-Glo; 78 h).
`Clc1ccc(-c2csc(NN=C3CCCC3)n2)cc1` has a viability of 108% (HBL-1; 0.5 µM, 120 h).
The plaque reduction of `CC(C)n1ncc2c(C(=O)NCC3(C)CNC3)cc(C3CC3)nc21` is reported as 100% (enterovirus D68; recombinant US/MO/14-18947 wild type; 1500 nM).
For `c1coc(-c2n[nH]cc2-c2ccnc3ccccc23)c1`, “log2 fold change” read -0.23 (FPK1 (Candida albicans); kinase binding, MIB/MS competition; Candida albicans lysate; 1 µM; reference: DMSO).
The sarcomere length of `O=C(O)CNC(=O)Cc1ccccc1` is reported as 1.72 µm (ventricular cardiomyocytes, C57BL/6 mouse; dose not given, 0.772 s).
The total cholesterol of `C[C@H]1O[C@@H](O[C@H]2CC[C@@]3(C)[C@@H](CC[C@]4(C)[C@@H]3C=C[C@]35OC[C@@]6(CCC(C)(C)C[C@H]63)[C@@H](O)C[C@]54C)[C@]2(C)CO)[C@H](O)[C@@H](O[C@@H]2O[C@H](CO)[C@@H](O)[C@H](O)[C@H]2O)[C@H]1O` is reported as 1.92 mM and 1.57 mM and 1.49 mM and 1.75 mM and 1.42 mM (chronic-plus-binge ethanol mice, plasma; oral, 10 mg/kg/day for 7 d, 168 h).
With `NC(=O)c1cnc2[nH]ccc2c1N[C@@H]1[C@@H]2CC3C[C@H]1C[C@@](O)(C3)C2` the percent change was -0.38% (regulatory T cells, flow cytometry; Caucasian humans, peripheral blood; 60 mg single dose; reference: baseline).
For `CC[C@H](C)n1cc(C)c2c(C(=O)NCc3c(C)cc(C)[nH]c3=O)cc(-c3ccc(N4CCNCC4)nc3)cc21`, the viability was 123% (HBL-1; 1 µM, 120 h).
The EC50 of `COc1cnc2cccc(N3CCc4c(cc(Cn5ccnc5C)cc4-c4cn(C)nc4C(F)(F)F)C3=O)c2c1` is reported as greater than 30000 nM (MM1.S; cell growth, inhibitor; 120 h).
The IC50 of `Cc1cc(O)c(-c2ccc(Sc3ccc(Cl)cc3)cc2)c(C)n1` is reported as 632 ± 89 nM (Plasmodium yoelii; 17XL; 384-well).
The EC50 of `Cc1ccccc1-c1ccc([C@H]2[C@@H](CO)N3CCCCN(S(C)(=O)=O)C[C@@H]23)cc1` is reported as greater than 100000 nM (IDE; enzyme activity, inhibitor, fluorogenic kinetic; together with: Mca-RPPGFSAFK(Dnp)-OH substrate).

Repeated from above:
The IC50 of `Cc1[nH]c(C)c(-c2ccc(-c3cc(C(F)(F)F)cc(C(F)(F)F)c3)nc2)c(=O)c1Br` is reported as 92 ± 65 nM (Plasmodium yoelii; 17XL; 384-well).
The sarcomere length of `CC(C)NCC(O)c1ccc(O)c(O)c1` (centres unmarked) is reported as 1.69 µm (ventricular cardiomyocytes, C57BL/6 mouse; dose not given, 0.12 s).
